# Published values gathered from unrelated publications.
# Lines come from different studies, so protocols differ. “And” joins repeats or separate records; there may be more than shown. ± gives the spread as reported.
# Target: Acetylcholinesterase (ache, Electrophorus electricus, UniProt O42275)
# Chain of UniProt O42275 (whole entry, looked up): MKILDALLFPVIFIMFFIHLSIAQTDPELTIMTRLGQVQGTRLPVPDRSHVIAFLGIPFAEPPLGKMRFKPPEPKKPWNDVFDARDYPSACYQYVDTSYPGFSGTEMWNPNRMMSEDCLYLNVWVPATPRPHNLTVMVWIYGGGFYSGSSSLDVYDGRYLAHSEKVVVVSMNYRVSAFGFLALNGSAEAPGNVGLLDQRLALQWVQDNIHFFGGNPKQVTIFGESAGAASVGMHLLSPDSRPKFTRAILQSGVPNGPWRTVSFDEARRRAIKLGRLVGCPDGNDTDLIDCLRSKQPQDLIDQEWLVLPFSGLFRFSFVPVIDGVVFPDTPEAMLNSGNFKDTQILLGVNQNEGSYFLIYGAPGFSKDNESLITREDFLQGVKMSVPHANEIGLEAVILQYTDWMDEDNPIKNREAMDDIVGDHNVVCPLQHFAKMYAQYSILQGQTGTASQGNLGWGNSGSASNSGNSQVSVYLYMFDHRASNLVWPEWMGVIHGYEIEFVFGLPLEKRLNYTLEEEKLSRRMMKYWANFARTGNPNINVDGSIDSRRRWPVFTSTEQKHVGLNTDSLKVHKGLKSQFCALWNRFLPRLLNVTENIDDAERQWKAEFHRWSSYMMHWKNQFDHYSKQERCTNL
# Observed: enzyme activity
# Mode: inhibitor
SMILES,assay,conditions,IC50
Ic1ccccc1/N=N/c1ccc2nc(-c3ccccc3)c(I)c(-c3ccccc3)c2c1,Ellman,pH 7.4,16 µM
CCN(CC)c1ccc(/C=N/NC(=O)COc2ccc(Sc3ccc(OCC(=O)N/N=C/c4ccc(N(CC)CC)cc4)cc3)cc2)cc1,,,33.5 µM
COc1ccc2c(c1OC)C(O)C1c3c(cc4c(c3-2)OCO4)CCN1C (stereo not shown),,,4.3 µM
O=Cc1ccc(/C=N/NC(=O)COc2ccc(Sc3ccc(OCC(=O)N/N=C/c4ccc(C=O)cc4)cc3)cc2)cc1,,,148 µM
COCCN1COc2c(cc3c4c(c(=O)oc3c2C)CCC4)C1,Ellman,,0.58 µM
COc1cc2c(cc1OC)C(=O)C1(C2)C(c2ccccc2)C(Cc2c[nH]c3ccccc23)NC12C(=O)Nc1ccc(OC(F)(F)F)cc12 (stereo not shown),,pH 8,< 10 µM and 5.94 µM
Nc1ccc(Nc2c(NC3CCN(Cc4ccccc4)CC3)c(=O)c2=O)cc1,Ellman,,4.4 µM
COc1cc2c(cc1OC(C)=O)C1Cc3ccc(OC(C)=O)c(OC)c3CN1CC2 (stereo not shown),,,15.4 µM
Cc1cccc(C[n+]2cccc(NC(=O)CN3C(=O)c4ccccc4C3=O)c2)c1,Ellman,,4.8 µM
O=S(=O)(Nc1cc(Cl)c(O)c(Cl)c1)c1cccc2cccnc12,Ellman,,2.34 µM
O=C(CN1C(=O)c2ccccc2C1=O)Nc1cc[n+](Cc2cccc(F)c2)cc1,Ellman,,2.7 µM
CC(C)=C[C@H]1C[C@](C)(O)[C@@H]2[C@H]3CC[C@@H]4[C@@]5(C)CC[C@H](O[C@@H]6OC[C@H](O)[C@H](O[C@@H]7O[C@H](CO)[C@@H](O)[C@H](O)[C@H]7O)[C@H]6O[C@@H]6O[C@@H](CO)[C@H](O)[C@H]6O)C(C)(C)[C@@H]5CC[C@@]4(C)[C@@]34CO[C@@]2(C4)O1,Ellman,,12.8 µM
CC(C)=CCCC1(C)C=Cc2c(ccc3cc(-c4cc(O)cc(O)c4CC=C(C)C)oc23)O1 (stereo not shown),,,4.61 µM
O=C(COc1ccc(Sc2ccc(OCC(=O)N/N=C/c3cccc(O)c3)cc2)cc1)N/N=C/c1cccc(O)c1,,,51.1 µM
COc1cc2c(cc1OC)C(=O)C1(C2)C(c2cccc([N+](=O)[O-])c2)C(Cc2ccccc2)NC12C(=O)Nc1ccc(OC(F)(F)F)cc12 (stereo not shown),,pH 8,2.21 ± 0.18 µM
O=C1CCCC2=C1C(c1c[nH]c3ccccc13)n1c(sc(=Cc3c[nH]c4ccccc34)c1=O)=N2 (stereo not shown),Ellman,,10.4 µM
COc1cc2c(cc1OC)C(=O)C1(C2)C(c2ccccc2Cl)C(Cc2c[nH]c3ccccc23)NC12C(=O)Nc1ccc(OC(F)(F)F)cc12 (stereo not shown),,pH 8,9.12 µM and < 10 µM
O=[N+]([O-])c1ccc(/N=N/c2ccc3nc(-c4ccccc4)cc(-c4ccccc4)c3c2)cc1,Ellman,pH 7.4,16.8 µM
N#Cc1ccc(Cn2cccc2C(/C=C/c2ccccc2)=N/NC(=N)N)cc1,Ellman,,56.1 µM
